Published values of several laboratories.
Lines come from different studies, so protocols differ. Numbers after ± are the reported error.
Target: Sodium-dependent dopamine transporter (Slc6a3, Rattus norvegicus, UniProt P23977)
UniProt P23977, sequence (whole entry, looked up): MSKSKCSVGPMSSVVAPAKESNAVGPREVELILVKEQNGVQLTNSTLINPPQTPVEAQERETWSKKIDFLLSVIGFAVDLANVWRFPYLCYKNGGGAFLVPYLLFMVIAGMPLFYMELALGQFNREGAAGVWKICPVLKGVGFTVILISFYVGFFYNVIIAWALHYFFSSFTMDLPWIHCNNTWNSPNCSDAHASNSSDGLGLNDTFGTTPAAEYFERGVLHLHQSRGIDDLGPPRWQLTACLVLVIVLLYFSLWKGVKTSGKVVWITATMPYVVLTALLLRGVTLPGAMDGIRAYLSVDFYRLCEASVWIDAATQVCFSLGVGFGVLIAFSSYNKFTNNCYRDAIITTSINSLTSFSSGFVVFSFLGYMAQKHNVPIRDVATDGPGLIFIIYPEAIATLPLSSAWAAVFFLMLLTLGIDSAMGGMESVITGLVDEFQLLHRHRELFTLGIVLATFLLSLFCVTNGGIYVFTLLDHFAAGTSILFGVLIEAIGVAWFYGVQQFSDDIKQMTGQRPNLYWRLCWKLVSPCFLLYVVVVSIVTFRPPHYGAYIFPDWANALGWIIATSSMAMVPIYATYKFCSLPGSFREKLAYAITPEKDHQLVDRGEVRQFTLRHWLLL

| SMILES | test | system | setting | measurement | value |
| --- | --- | --- | --- | --- | --- |
| COc1ccc2[nH]cc(CCNC(C)C)c2c1 | inhibitor |  |  | IC50 | > 10000 nM |
| CNC(C)C(=O)c1ccccc1 (centres unmarked) | dopamine release, releaser | rat brain synaptosomes |  | EC50 | 49.9 ± 3.1 nM |
| Cc1ccccc1N=C(N)Nc1ccccc1C | ligand displacement, radioligand |  |  | Ki | 93500 nM |
| CNC(C)C(=O)c1cccc(Cl)c1 (centres unmarked) | dopamine release, releaser | rat brain synaptosomes |  | EC50 | 46.8 ± 4 nM |
| CNC(C)C(=O)c1ccccc1 (centres unmarked) | substrate release, releaser | rat striatal synaptosomes | added: [3H]MPP+ | EC50 | 21 nM |
| CN(C)CCN(C)CCc1ccc(Cl)c(Cl)c1 | ligand displacement, radioligand |  |  | Ki | 3220 nM |
| CNC(COC)C(=O)c1ccc(C)cc1 (centres unmarked) | dopamine transport |  |  | IC50 | 6840 nM |
| C[C@@H]1N=C(N)O[C@@H]1c1ccccc1 (racemic) | substrate release, releaser, [3H]MPP+ release | rat brain synaptosomes | added: [3H]MPP+ 9 nM | EC50 | 1.7 ± 0.2 nM |
| CC(C)NCCc1c[nH]c2ccccc12 | inhibitor |  |  | IC50 | > 10000 nM |
| CCC[C@H](C(=O)c1ccc2c(c1)OCO2)N1CCCC1 | transporter uptake, inhibitor, radiometric |  |  | IC50 | 383 nM |
| Cc1ccc([C@@H]2OC(N)=N[C@H]2C)cc1 (relative stereo) | substrate release, releaser | rat brain synaptosomes | added: [3H]MPP+ 9 nM | EC50 | 24.4 ± 2.7 nM |
| CCCN(CCC)CCc1c[nH]c2ccccc12 | inhibitor |  |  | IC50 | 2220 ± 168 nM |
| CCCC(C(=O)c1ccc2c(c1)OCO2)N1CCCC1 (centres unmarked) | transporter uptake, inhibitor, radiometric |  |  | IC50 | 4.1 nM |
| CNCCc1c[nH]c2ccc(OC)cc12 |  |  |  | EC50 | > 10000 nM |
| Cc1ccc(C2OCCNC2C)cc1 (centres unmarked) | inhibitor |  |  | IC50 | 1930 nM |
| CNC(C)Cc1ccc2ccoc2c1 (centres unmarked) | transporter-mediated release, substrate | rat striatal synaptosomes | 30 min, added: [3H]MPP+ | EC50 | 20 ± 2 nM |
| CNC(C)Cc1ccc2c(c1)OCO2 (single isomer, unassigned; (+)) | substrate release, releaser | rat brain synaptosomes | added: [3H]MPP+ 9 nM | EC50 | 143 ± 16 nM |
| CCC[C@H](C(=O)c1ccccc1)N1CCCC1 | transporter uptake, inhibitor, radiometric |  |  | IC50 | 307 nM |
| C[C@@H]1N=C(N)O[C@@H]1c1ccc2c(c1)OCO2 (racemic) | substrate release, releaser | rat brain synaptosomes | added: [3H]MPP+ 9 nM | EC50 | 10.2 ± 1.2 nM |
| O=C(OCCN1CCOCC1)C1(c2ccccc2)CCCCC1 | ligand displacement, radioligand |  |  | Ki | 19600 nM |

For quick reference, copied from above:
| SMILES | test | system | setting | measurement | value |
| --- | --- | --- | --- | --- | --- |
| CCCN(CCC)CCc1c[nH]c2ccccc12 | inhibitor |  |  | IC50 | 2220 ± 168 nM |
| CCCC(C(=O)c1ccc2c(c1)OCO2)N1CCCC1 (centres unmarked) | transporter uptake, inhibitor, radiometric |  |  | IC50 | 4.1 nM |
| CNCCc1c[nH]c2ccc(OC)cc12 |  |  |  | EC50 | > 10000 nM |
